Published values gathered from unrelated publications.
Protocols differ between the studies behind these lines. Several values in a cell are separate wells, animals, samples, runs or records. ± gives the spread as reported.
B1: FABP4; sequence looked up; chain CDAFVGTWKLVSSENFDDYMKEVGVGFATRKVAGMAKPNMIISVNGDLVTIRSESTFKNTEISFKLGVEFDEITADDRKVKSIITLDGGALVQVQKWDGKSTTIKRKRDGDKLVVECVMKGVTSTRVYERA
B2: IκBα YD/SS; sequence looked up; chain MFQAAERPQEWAMEGPRDGLKKERLLDDRHDSGLDSMKDEEYEQMVKELQEIRLEPQEVPRGSEPWKQQLTEDGDSFLHLAIIHEEKALTMEVIRQVKGDLAFLNFQNNLQQTPLHLAVITNQPEIAEALLGAGCDPELRDFRGNTPLHLACEQGCLASVGVLTQSCTTPHLHSILKATNYNGHTCLHLASIHGYLGIVELLVSLGADVNAQEPCNGRTALHLAVDLQNPDLVSLLLKCGADVNRVTYQGYSPYQLTWGRPSTRIQQQLGQLTLENLQMLPESEDEESYDTESEFTEFTEDELPSSDCVFGGQRLTL

ALLCWVTQV  reporter activation (Jurkat T cells expressing 1G4 TCR; NFAT-eGFP reporter, flow cytometry; peptide; concentration not given, HLA-A*02:01 NY-ESO system): 0.15%
QSARYRDTEL  binding intensity (human MAGI1-2/6 PDZ construct (MBP fusion); automated holdup; peptide, crude extract; concentration not given, uncorrected, unit not given; baseline: biotin control resin, higher = stronger binding): 0.0758
Peginesatide  phosphorylation level (UT7/EPO; tyrosine phosphorylation, LC-MS/MS phosphoproteomics, GluC, measured: VAV1 tyrosine 844; 10 nM, 15 min, together with: 10 U/mL EPO; baseline: vehicle): 3.7 fold
YLFEWVPRL  reporter activation (Jurkat T cells expressing 1G4 TCR; NFAT-eGFP reporter, fluorescence microscopy; peptide; concentration not given, HLA-A*02:01 NY-ESO system): 0.0182%
apatinib  EC50 (HEK-293T ATF4-FLuc reporter; reporter gene, activator, qHTS): 8.95 µM
RLYQWIPQV  reporter activation (Jurkat T cells expressing 1G4 TCR; NFAT-eGFP reporter, flow cytometry; peptide; concentration not given, HLA-A*02:01 NY-ESO system): 2.82%
vecabrutinib  EC50 (HEK-293T ATF4-FLuc reporter; reporter gene, activator, qHTS): 6.04 µM
epoetin alfa  mRNA level (UT7/EPO; microarray, measured: CISH (probe 221223_x_at); 5 U/mL, 90 min, together with: SCF 10 nM; baseline: vehicle): 5.4 fold
Ac-LRKLRKRLLRDWLKAFYDKVAEKLKEAF-NH2 (N-acetyl, C-amide)  apoA-I as preβ-HDL (HepG2; peptide; 20 µg/mL, 20 h): 99%
nivolumab  granzyme B spot count (CMV-specific PBMC; FluoroSpot; concentration not given, together with: NLVPMVATV peptide restimulation; baseline: control without ATP): 97.9% and 117% and 114%
PMESGICTIV  binding intensity (human MAGI1-3/6 PDZ construct (MBP fusion); automated holdup; peptide, purified PDZ protein; concentration not given, unit not given; baseline: biotin control resin, higher = stronger binding): 0.062
SLLQWVSMV  reporter activation (Jurkat T cells expressing 1G4 TCR; NFAT-eGFP reporter, flow cytometry; peptide; concentration not given, HLA-A*02:01 NY-ESO system): 0.24%
bis(2,4-dimethylpyridine)dichloroplatinum(II)  IC50 (A549; cell viability, MTT; 48 h): 10.5 µM
evodiamine  IC50 (HL-60; cell proliferation): 1.3 ± 0.05 µM
ALFQWISQV  reporter activation (Jurkat T cells expressing 1G4 TCR; NFAT-eGFP reporter, fluorescence microscopy; peptide; concentration not given, HLA-A*02:01 NY-ESO system): 21.1%
bovine insulin  differentiated chondrocytes (ATDC5; 10 µg/mL, end of nodule growth; baseline: total cells): 85%
B1 (FABP4)  osteoclast number (mouse bone marrow macrophages; TRAP staining; 50 ng/mL, 4 days, together with: M-CSF and RANKL): 230 and 257 and 221 and 209
MTVCNASQRQAHAQATAVSL  selectivity ratio (H1355 lung adenocarcinoma; phage binding output/input; peptide; baseline: control phage): 2.8 ± 1.9
verteporfin  inhibition (BT-16; cell viability, MTT; 10 µM, 72 h): 88.9%
indirubin-3′-monoxime  inhibition (HeLa expressing Ub(G76V)-GFP; Ub(G76V)-GFP degradation, inhibitor, cycloheximide chase; 12 µM): 2%
GLAQWLGHV  reporter activation (Jurkat T cells expressing 1G4 TCR; NFAT-eGFP reporter, flow cytometry; peptide; concentration not given, HLA-A*02:01 NY-ESO system): 0.13%
HPDMFTRTHSHN  fluorescence signal (CCA-156; multimer binding; peptide; 150 µM, 30 min, 4 °C, unlabelled competitor, together with: 5 µM Cy5.5-labelled multimer): decreased
B2 (IκBα YD/SS)  IκBα protein level (IκBα/IκBβ/IκBε knockout MEF, retro-transduced IκBα; Western blot; concentration not given, 0 (unit not given), together with: TNFα 20 ng/mL; baseline: time zero): 100%
maraviroc  mRNA level (HBMEC; gene expression, qPCR; 2.5 µM, 24 h, together with: HIV infection; baseline: HIV-infected cells, increase): 21 fold
GLAQWIAGA  reporter activation (Jurkat T cells expressing 1G4 TCR; NFAT-eGFP reporter, fluorescence microscopy; peptide; concentration not given, HLA-A*02:01 NY-ESO system): 0.01%
monensin sodium  Z score (MCF-10A; cell viability, CellTiter-Glo; direction not given): 0.729
ALLQWTDQV  reporter activation (Jurkat T cells expressing 1G4 TCR; NFAT-eGFP reporter, flow cytometry; peptide; concentration not given, HLA-A*02:01 NY-ESO system): 20.7%
KMTMR  active β-catenin level (THP-1; Western blot; peptide; 0.5 µM, 3 days, unit not given, together with: WNT3A; baseline: WNT3A alone): 1.3

A few entries again:
SLLQWVSMV  reporter activation (Jurkat T cells expressing 1G4 TCR; NFAT-eGFP reporter, flow cytometry; peptide; concentration not given, HLA-A*02:01 NY-ESO system): 0.24%
B2 (IκBα YD/SS)  IκBα protein level (IκBα/IκBβ/IκBε knockout MEF, retro-transduced IκBα; Western blot; concentration not given, 0 (unit not given), together with: TNFα 20 ng/mL; baseline: time zero): 100%
bovine insulin  differentiated chondrocytes (ATDC5; 10 µg/mL, end of nodule growth; baseline: total cells): 85%
